Measurements collected from several papers.
Every numbered part comes from another study and shows a few of its results, in no order.

Series 1
Substance: PhoQ, residues 284 288 289 292 302 303 SLANIV
Method: Sort-seq
Item: YFP reporter
Sample: E. coli
Setting: PhoQ-PhoP variant library
With: 10 µM Mg2+
Reference: high Mg2+ state
Direction: higher = stronger signaling
It gave 1.3 for fold induction (PhoP, residues 12 14 15 18 19 SHWTV (Escherichia coli, UniProt P23836)).
PhoP, residues 12 14 15 18 19 STHWV (Escherichia coli, UniProt P23836) — fold induction: 11.3.
It gave 4.68 for fold induction (PhoP, residues 12 14 15 18 19 QYCSL (Escherichia coli, UniProt P23836)).

Series 2
Target: Prothrombin, mature alpha-thrombin (F2, Homo sapiens, UniProt P00734)
Method: aptamer microarray, sandwich
Form: DNA with 2'F-ANA
Sample: in vitro
Concentration: 200 nM
Setting: whole 15-mer aptamer, many near background
With: Cy3 exosite-II aptamer, 400 nM
Direction: higher = stronger binding
Under “mean fluorescence intensity”, `GGTTGGTGTGGTTGG (2'F-ANA at 1 3 4 5 6 12 14)` is recorded as 65.7 a.u.
`GGTTGGTGTGGTTGG (2'F-ANA at 2 3 5 10 11)`: “mean fluorescence intensity” 106 a.u.
`GGTTGGTGTGGTTGG (2'F-ANA at 1 3 5 6 7 8 10 11 12 13 14)` — result for “mean fluorescence intensity”: 49.3 a.u.

Series 3
Target: Centromere-binding protein 1, full length, N-terminal tag (CBF1, Saccharomyces cerevisiae, UniProt P17106, residues 1-351)
Sequence of UniProt P17106 (whole entry, looked up): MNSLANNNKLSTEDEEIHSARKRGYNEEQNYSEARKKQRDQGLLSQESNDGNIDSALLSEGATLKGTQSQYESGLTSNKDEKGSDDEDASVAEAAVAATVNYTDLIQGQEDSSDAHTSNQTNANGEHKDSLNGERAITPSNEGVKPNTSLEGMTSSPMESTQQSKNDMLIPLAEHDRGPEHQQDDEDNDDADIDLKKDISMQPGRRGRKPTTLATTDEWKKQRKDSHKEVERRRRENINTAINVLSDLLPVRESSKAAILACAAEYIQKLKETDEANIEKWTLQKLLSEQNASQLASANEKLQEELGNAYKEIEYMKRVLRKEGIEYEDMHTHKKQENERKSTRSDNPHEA
Method: protein-binding microarray
Form: double-stranded DNA, one strand shown
Sample: in vitro
Concentration: 0.8 µM
Setting: whole 60-bp probe, no competitor
Direction: higher = stronger binding
The fluorescence intensity of `CTACTAAATATAGTGATCGTGGTCATAAATTAATTCGTCTTGATTCGCTTGACGCTGCTG` is reported as 596 a.u.
`CTAACATCAGCCCATCACCCATTTATTTGTTCTTTCGTCTTGATTCGCTTGACGCTGCTG` gave a fluorescence intensity of 508 a.u.
`CTATCTTCATTTAATAACGTGTTAAGAATGACATTCGTCTTGATTCGCTTGACGCTGCTG` has a fluorescence intensity of 793 a.u.
`CTATCTCCATACGGTGACATGGCGTTATTTACATTCGTCTTGATTCGCTTGACGCTGCTG` gave a fluorescence intensity of 537 a.u.

Series 4
Target: Histone acetyltransferase KAT6A, winged helix 2, GST fusion (KAT6A, Homo sapiens, UniProt Q92794, residues 85-181)
Method: protein binding microarray
Form: double-stranded DNA, one strand shown
Sample: in vitro
Concentration: not given
Setting: 8-mer, flanks averaged, mean of 2 arrays, mostly near background
Reference: not given
Direction: higher = stronger binding
Residues (chain): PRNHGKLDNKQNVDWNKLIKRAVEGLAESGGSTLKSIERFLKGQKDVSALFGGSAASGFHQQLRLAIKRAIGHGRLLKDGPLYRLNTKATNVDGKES
For `GTTTTCCA`, the E-score was 0.00352.
With `CACTGACA` the E-score was 0.04.
The E-score of `GTGCCACA` is reported as -0.0715.

A few entries again (series 2):
Under “mean fluorescence intensity”, `GGTTGGTGTGGTTGG (2'F-ANA at 1 3 4 5 6 12 14)` is recorded as 65.7 a.u.
`GGTTGGTGTGGTTGG (2'F-ANA at 2 3 5 10 11)`: “mean fluorescence intensity” 106 a.u.
